Measured values gathered from unrelated publications.
± marks the error that the study gave.
ABCG2: Broad substrate specificity ATP-binding cassette transporter ABCG2 (ABCG2, Homo sapiens, UniProt Q9UNQ0)
Chain of UniProt Q9UNQ0 (whole entry, looked up): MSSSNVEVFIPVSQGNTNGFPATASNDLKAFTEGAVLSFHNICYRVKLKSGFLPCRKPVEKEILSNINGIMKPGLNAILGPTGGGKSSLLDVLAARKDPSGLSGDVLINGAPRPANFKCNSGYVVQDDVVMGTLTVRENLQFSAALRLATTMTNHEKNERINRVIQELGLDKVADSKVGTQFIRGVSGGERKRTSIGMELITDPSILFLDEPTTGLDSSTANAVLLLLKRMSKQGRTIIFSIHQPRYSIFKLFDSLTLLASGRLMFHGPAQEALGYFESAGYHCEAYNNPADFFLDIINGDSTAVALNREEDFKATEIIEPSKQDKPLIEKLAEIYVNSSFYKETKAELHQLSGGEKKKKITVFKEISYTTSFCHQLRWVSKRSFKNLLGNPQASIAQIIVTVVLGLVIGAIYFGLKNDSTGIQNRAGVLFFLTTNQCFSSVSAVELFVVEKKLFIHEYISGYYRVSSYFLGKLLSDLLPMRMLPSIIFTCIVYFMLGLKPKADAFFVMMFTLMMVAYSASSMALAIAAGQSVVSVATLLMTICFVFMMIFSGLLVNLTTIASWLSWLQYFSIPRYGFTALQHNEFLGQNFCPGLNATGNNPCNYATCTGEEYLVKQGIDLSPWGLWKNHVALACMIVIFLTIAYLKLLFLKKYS
Chain of UniProt P00760 (whole entry, looked up): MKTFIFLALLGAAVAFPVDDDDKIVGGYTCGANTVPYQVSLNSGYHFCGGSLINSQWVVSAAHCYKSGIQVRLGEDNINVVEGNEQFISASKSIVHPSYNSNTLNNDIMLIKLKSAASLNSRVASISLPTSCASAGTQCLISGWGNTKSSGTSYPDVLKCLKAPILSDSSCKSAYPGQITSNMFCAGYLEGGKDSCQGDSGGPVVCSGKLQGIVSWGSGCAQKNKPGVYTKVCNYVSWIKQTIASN
Chain of UniProt P11509 (whole entry, looked up): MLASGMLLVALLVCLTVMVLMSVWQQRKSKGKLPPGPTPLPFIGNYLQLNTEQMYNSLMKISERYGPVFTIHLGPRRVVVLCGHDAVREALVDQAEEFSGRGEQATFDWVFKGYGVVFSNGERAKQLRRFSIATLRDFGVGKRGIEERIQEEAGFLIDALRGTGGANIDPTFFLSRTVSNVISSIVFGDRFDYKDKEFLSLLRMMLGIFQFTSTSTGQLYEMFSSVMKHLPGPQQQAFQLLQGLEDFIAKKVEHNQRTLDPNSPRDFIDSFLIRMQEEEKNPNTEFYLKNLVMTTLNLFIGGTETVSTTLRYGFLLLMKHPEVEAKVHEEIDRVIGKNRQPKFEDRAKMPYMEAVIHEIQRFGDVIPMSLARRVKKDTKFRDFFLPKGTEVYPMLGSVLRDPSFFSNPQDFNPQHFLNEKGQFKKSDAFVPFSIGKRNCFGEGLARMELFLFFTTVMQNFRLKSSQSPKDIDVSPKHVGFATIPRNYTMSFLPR

C=C(C[C@@H]1CCOc2ccccc21)c1ccc(F)cc1
IC50 (RAW264.7; cytotoxicity, CCK-8; 24 h): 28.2 µM

COc1cccc(-c2cc3nc(-c4ccccc4)cc(N4CCN(C(=O)c5ccco5)CC4)n3n2)c1
IC50 (ABCG2; JC-1 dye efflux, inhibitor, flow cytometry; ABCG2-overexpressing cells; added: JC-1 1 µM): 1.4 ± 0.32 µM

CCCCCCCCCCNC
intrinsic clearance in vitro (Oncorhynchus mykiss; liver S9 substrate depletion; rainbow trout liver S9; tested individually): 0.335 mL/h/mg S9 protein

Nc1ncnc2c1ncn2[C@H]1CC[C@@H](CO)O1
IC50 (CEM-CCRF; cell growth, trypan blue exclusion; 6 d): > 100 µM

C=C(C[C@@H]1CCOc2ccccc21)c1cccc(C)c1
IC50 (RAW264.7; cytotoxicity, CCK-8; 24 h): 128 µM

C=CC(=O)N1CCC([C@@H]2CCNc3c(C(N)=O)c(-c4ccc(Oc5ccccc5)cc4)nn32)CC1
remaining activity (ABCG2; transport, item: Lucifer Yellow uptake; membrane vesicles; 0.05 µM; baseline: vehicle): 93 ± 17%

CCCC[P+](CCCC)(CCCC)CCCC
IC50 (Caco-2): 16500 ± 3240 µM

O=C1CC(c2ccccc2)Oc2ccccc21 (centres unmarked)
Km (Cytochrome P450 2A6 (CYP2A6, Homo sapiens, UniProt P11509); substrate, reconstituted monooxygenase system, item: hydroxylated metabolite): 19 µM

CN1CCN2CCN(CC1)CCN(Cc1ccccc1)CC2
IC50 (THP-1; cell growth or viability): > 20 µM

C=C(C[C@@H]1CCSc2ccc(Cl)cc21)c1ccccc1
IC50 (RAW264.7; cytotoxicity, CCK-8; 24 h): 144 µM

O=c1ccn([C@H]2C=C[C@@H](CO)O2)c(=O)[nH]1
IC50 (CEM-CCRF; cell growth, trypan blue exclusion; 6 d): 55.9 µM

O=C1NN=C(N=Cc2ccccc2)C1=NNn1c(-c2ccccc2)nc2ccccc2c1=O
IC50 (NIH 3T3; cytotoxicity, MTT): 156 µM

O=c1[nH]c(=O)n([C@H]2C[C@H](OP(=O)(O)OC[C@H]3O[C@H](O)[C@H](O)[C@@H](O)[C@@H]3O)[C@@H](CO)O2)cc1I
IC50 (CEM-CCRF; cell growth, trypan blue exclusion; 6 d): 76 µM

C=C(C[C@@H]1CCSc2ccc(C)cc21)c1ccccc1
IC50 (RAW264.7; cytotoxicity, CCK-8; 24 h): 82.7 µM

Cc1c(O)cc(C[C@]23C[C@H](C[C@H](C)O2)c2c4c(c(O)c(C)c2O3)CO[C@]2(CCC[C@H](C)O2)C4)c(C=O)c1O
IC50 (A549; cell growth or viability): 6.8 µM

CC[C@H](C)[C@H](NC(=O)[C@H](CCC(=O)O)NC(=O)[C@H](CO)NC(=O)[C@@H](NC(=O)[C@@H](N)CO)C(C)C)C(=O)N[C@@H](CCC(N)=O)C(=O)N[C@@H](CC(C)C)C(=O)N[C@@H](CCSC)C(=O)N[C@@H](Cc1cnc[nH]1)C(=O)N[C@@H](CC(N)=O)C(=O)N[C@@H](CC(C)C)C(=O)NCC(=O)N[C@@H](CCCCN)C(=O)N[C@@H](Cc1cnc[nH]1)C(=O)N[C@@H](CC(C)C)C(=O)N[C@@H](CC(N)=O)C(=O)N[C@@H](CO)C(=O)N[C@@H](CCSC)C(=O)N[C@@H](CCC(=O)O)C(=O)N[C@@H](CCCN=C(N)N)C(=O)N[C@H](C(=O)N[C@@H](CCC(=O)O)C(=O)N[C@@H](Cc1c[nH]c2ccccc12)C(=O)N[C@@H](CC(C)C)C(=O)N[C@@H](CCCN=C(N)N)C(=O)N[C@@H](CCCCN)C(=O)N[C@@H](CCCCN)C(=O)N[C@@H](CC(C)C)C(=O)N[C@@H](CCC(N)=O)C(=O)N[C@@H](CC(=O)O)C(=O)N[C@H](C(=O)N[C@@H](Cc1cnc[nH]1)C(=O)N[C@@H](CC(N)=O)C(=O)N[C@@H](Cc1ccccc1)C(=O)O)C(C)C)C(C)C
remaining intact compound (Serine protease 1 (PRSS1, Bos taurus, UniProt P00760); substrate, HPLC-UV; Tris buffer; 10 min, pH 6.5, 37 °C, added: bovine trypsin 0.5 mg, no SBTI): 0%

CC1=NN(CNc2c(O)c(S(=O)(=O)O)cc3ccccc23)C(=O)C1=NNn1c(-c2ccccc2)nc2ccccc2c1=O
IC50 (NIH 3T3; cytotoxicity, MTT): 206 µM

O=C(c1ccoc1)N1CCN(c2cc(-c3cccc(F)c3)nc3cc(-c4ccccc4)nn23)CC1
IC50 (ABCG2; JC-1 dye efflux, inhibitor, flow cytometry; ABCG2-overexpressing cells; added: JC-1 1 µM): 1.68 ± 0.61 µM

CC1=NN(CNc2ccccn2)C(=O)C1=NNn1c(-c2ccccc2)nc2ccccc2c1=O
IC50 (NIH 3T3; cytotoxicity, MTT): 87 µM

CCCCCCCCCCN
intrinsic clearance in vivo (Oncorhynchus mykiss; liver S9 substrate depletion; pooled rainbow trout liver S9; pH 7.8, tested individually): 21 mL/h/g liver

O=c1[nH]cc(F)c(=O)[nH]1
IC50 (NHDF; MTT; 72 h, 10% FBS): > 200 µM

C=C(C[C@@H]1CCSc2ccc(OC)cc21)c1ccccc1
IC50 (RAW264.7; cytotoxicity, CCK-8; 24 h): 267 µM

O=C1NN=C(N=Cc2ccc(O)cc2O)C1=NNn1c(-c2ccccc2)nc2ccccc2c1=O
IC50 (NIH 3T3; cytotoxicity, MTT): 223 µM

Some of these lines once more:
CN1CCN2CCN(CC1)CCN(Cc1ccccc1)CC2
IC50 (THP-1; cell growth or viability): > 20 µM

C=C(C[C@@H]1CCSc2ccc(Cl)cc21)c1ccccc1
IC50 (RAW264.7; cytotoxicity, CCK-8; 24 h): 144 µM

O=c1ccn([C@H]2C=C[C@@H](CO)O2)c(=O)[nH]1
IC50 (CEM-CCRF; cell growth, trypan blue exclusion; 6 d): 55.9 µM
